Assay results pooled from the literature.
A part holds a random share of what one study measured. Positions count from the first letter of the parent shown.

Study 1
Target: Histone acetyltransferase KAT6A, winged helix 2, GST fusion (KAT6A, Homo sapiens, UniProt Q92794, residues 85-181)
Technique: protein binding microarray
Molecule type: double-stranded DNA, one strand shown
Sample: in vitro
Tested at: not given
Notes: 8-mer, flanks averaged, mean of 2 arrays, mostly near background
Relative to: not given
Reading: higher = stronger binding
Measurement: E-score
Construct (chain): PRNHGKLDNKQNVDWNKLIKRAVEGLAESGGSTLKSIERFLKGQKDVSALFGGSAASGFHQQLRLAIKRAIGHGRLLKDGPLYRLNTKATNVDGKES
CTAACATC: -0.0259
CCCTGTGC: 0.0546
CCCTAGGC: -0.0238
ACCGGATC: -0.00822
AACCCCGC: 0.0963
TCCCTTAA: -0.133
AACGGTGT: -0.12
GCTTTCCC: 0.112
AGACCACA: 0.0957
GGAAGAAC: 0.129
CTGGCGCA: 0.124
AGTAATAC: -0.083
AGTCCAGG: -0.0725
AAGAAAGT: -0.0375
ACACCGAA: -0.0292
CTACGCGC: 0.0796
CACCCTGA: -0.0029
CCCCAGCC: 0.0864
ACAGTAAC: -0.0982
GCTTTACA: -0.0895
TGAATAAA: 0.049
GTAACACA: -0.155
AACCGTAT: -0.178
GGACTGAC: -0.145
ACTTCGGC: 0.0617

Study 2
Target: RNA binding protein fox-1 homolog 2, RRM domain, GST-SBP tag (RBFOX2, Homo sapiens, UniProt O43251-10, residues 100-194)
Technique: RNA Bind-n-Seq
Molecule type: RNA
Sample: in vitro
Tested at: 365 nM
Notes: natural RNA segment, single round, ends assumed
Relative to: no-protein control
Reading: higher = stronger binding
Measurement: RBNS enrichment (R)
Construct (chain): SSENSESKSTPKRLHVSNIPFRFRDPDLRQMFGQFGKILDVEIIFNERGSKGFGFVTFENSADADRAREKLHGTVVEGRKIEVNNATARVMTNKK
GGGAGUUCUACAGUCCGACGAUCGGACACAUCUCUCUAUGCAAUUUGUCCCCACCCCACCCCGGCAUGAGAGGCCACGCAGCUCCCGACCCUCCGGCCUCCUCUCGCACAUGGAAGGUAUCAGCACUUUGAGAUGGAAUUCUCGGGUGCCAA: 1.29
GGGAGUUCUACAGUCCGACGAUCCAUGUCCACUGAAGCCACUGGCAGUGGCUCCCAACCCCCAUCCCAUUAGAAGGGACUUGGCCUGCCCUUUGGAACUGUGCCCUUGUAGAAGAAGUAAAGGACUGAAUCAUUGGAAUUCUCGGGUGCCAA: 0.478
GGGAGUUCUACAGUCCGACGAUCCUAACAGGAGGAGUGAUUUGCCCAGGGUUUUUAGCCCUCUCUGGUACAGAACUGGGAUGUGAACAUUGGUCAGAGACCCCACCCAUUAGUAGCUGGAGCCUCUGGGCUCCUGGAAUUCUCGGGUGCCAA: 0.213
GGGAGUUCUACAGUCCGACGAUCGCAGGACUUUUGUAAUGUUGUCUAAAUGAGGAAACAUUUCUGUCAAAUUAGCCUAGUGAAAUCUCUGAUUGUUCAUUACAAAGGCAGCGUUCACAGCAUUGCUUCUUCUUUGGAAUUCUCGGGUGCCAA: 0.325
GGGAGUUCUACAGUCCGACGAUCAGGGAGCCUGAUGCCCCCAAUUGGUAGUGAGAAUUUGGGGACCUCCCCAACCCCCGACCCCACAAACAGGGCCUCUGUAAUCCUCCAGCUAACUUCCUACAAACAUCUGCUGGAAUUCUCGGGUGCCAA: 0.306
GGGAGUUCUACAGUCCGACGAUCUCCUAACACACAUUCAGAGAAAGGAUAGACUUGGCAUCUCUUGGGUAGGAGUCAGGGCCCAUCCAGACCAGUCACCAUCCAGCCAUGCACUGUCAUCAUCACCCAUAAUGUGGAAUUCUCGGGUGCCAA: 0.386
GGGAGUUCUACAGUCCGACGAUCGUGACAGAGAGAACCUCAAAAAUGUAGCUGGAAAGGACUUUAAAACUCAUCCAAUGCAGAGUCUCGCUCCUAGCUGCCUACCCGAGAUCCCUUGCUUCAACCUCCCCAGGUGGAAUUCUCGGGUGCCAA: 0.362
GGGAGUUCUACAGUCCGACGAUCCCCAUCAGGCAGGCGCCAGUCCGCUGGGUCCCUGUCCAUCCUUUCCACCCCCAGUACCCCAGGUGUGUAUACCCAGGUCAUACACUGCAACCCCAAGUGGUCCCAGGAUCUGGAAUUCUCGGGUGCCAA: 0.382

Study 3
Target: ABI1, truncated, D143A, DHFR fusion (Arabidopsis thaliana)
Technique: DHFR PCA, deep sequencing
Sample: yeast
Notes: methotrexate growth selection, single substitutions
With: (+)-ABA 1.4 µM
Relative to: wild-type fitted maximum
Reading: higher = stronger binding
Measurement: relative binding score
Starting sequence: PYL1, truncated, DHFR fusion (Arabidopsis thaliana); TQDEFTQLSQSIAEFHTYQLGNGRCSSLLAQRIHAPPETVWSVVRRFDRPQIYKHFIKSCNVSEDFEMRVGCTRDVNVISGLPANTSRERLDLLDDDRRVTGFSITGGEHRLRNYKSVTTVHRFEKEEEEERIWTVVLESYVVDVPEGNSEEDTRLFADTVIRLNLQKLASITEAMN; partner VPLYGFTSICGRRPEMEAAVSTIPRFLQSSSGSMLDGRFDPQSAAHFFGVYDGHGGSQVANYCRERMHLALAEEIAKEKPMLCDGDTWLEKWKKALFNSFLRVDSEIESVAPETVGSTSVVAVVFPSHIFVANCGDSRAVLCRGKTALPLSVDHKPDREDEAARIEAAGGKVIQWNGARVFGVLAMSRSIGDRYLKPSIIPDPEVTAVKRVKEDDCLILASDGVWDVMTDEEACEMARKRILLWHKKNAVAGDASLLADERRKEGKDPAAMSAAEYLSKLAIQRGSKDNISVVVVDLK
S27K: -5.98%
P83Y: -4.93%
N165P: 19.5%
L91R: 1.37%
S59G: 24.9%
V137I: 17.3%
K126Q: 67.5%
G81I: -11.5%
H34V: 28.7%
L93I: 89.1%
S117I: -4.57%
S11Y: 46.6%
D75R: 44.2%

Study 4
Target: TAR DNA-binding protein 43, full length, His tag (TARDBP, Homo sapiens, UniProt Q13148, residues 1-414)
Technique: RNA Bind-n-Seq
Molecule type: RNA
Sample: in vitro
Tested at: 20 nM
Notes: 6-mer, flanks averaged, single round
With: 150 mM KCl
Relative to: input library
Reading: higher = stronger binding
Measurement: 6-mer enrichment (R)
CAGAUU: 0.576
AUCAGG: 0.981
GCUUUC: 0.598
UACUUG: 0.633
GAGACC: 0.88
UUUACA: 0.591
CUGGAG: 1.43
CUGUUG: 0.77
UCCUUC: 0.549
CUGCAG: 0.862
CUCUUU: 0.612
AGGUGU: 1.4
CAUACG: 0.666
UGCCGU: 0.774
UUGCGU: 0.856
UAGUAU: 0.7
UAGUCG: 0.776
UCGCCU: 0.614
CGUCUG: 0.783
UCCGAG: 0.847

Study 5
Target: Prothrombin, mature alpha-thrombin (F2, Homo sapiens, UniProt P00734)
Technique: aptamer microarray, sandwich
Molecule type: DNA with 2'F-ANA
Sample: in vitro
Tested at: 200 nM
Notes: whole 15-mer aptamer, many near background
With: Cy3 exosite-II aptamer, 400 nM
Reading: higher = stronger binding
Measurement: mean fluorescence intensity
Oligonucleotide: GGTTGGTGTGGTTGG
2'F-ANA at 2 3 5 6 8 11 12 13: 147 a.u.
2'F-ANA at 1 2 3 4 8 9 10 11 12 14: 51.7 a.u.
2'F-ANA at 2 3 5 7 8 14: 56.5 a.u.
2'F-ANA at 2 3 6 9 12 14: 419 a.u.
2'F-ANA at 3 5 7 9 10 13 15: 56.4 a.u.
2'F-ANA at 1 3 5 6 7 8 9 12 13: 90.7 a.u.
2'F-ANA at 1 2 4 5 7 8 9 10 11 12 13 15: 55 a.u.
2'F-ANA at 1 3 4 5 6 7 8 9 12 13: 80.2 a.u.
2'F-ANA at 1 3 5 6 7 9 10 11: 49.6 a.u.
2'F-ANA at 3 5 8 11 12: 239 a.u.
2'F-ANA at 1 3 4 6 7 9 14: 62 a.u.
2'F-ANA at 2 4 5 6 7 9 12 13 14: 46.3 a.u.
2'F-ANA at 1 4 5 6 7 8 10 11 12 14: 96.3 a.u.
2'F-ANA at 1 5 7 8 10 13 14 15: 56 a.u.
2'F-ANA at 3 6 7 9 12 14: 550 a.u.
2'F-ANA at 1 2 3 5 7 9 11 12 13 14 15: 49.9 a.u.
2'F-ANA at 1 3 4 10 13: 53.4 a.u.
2'F-ANA at 2 4 5 9 11 15: 55.2 a.u.
2'F-ANA at 1 2 3 4 5 6 8 11 15: 67.4 a.u.
2'F-ANA at 1 2 3 4 5 7 9 14: 69.2 a.u.
2'F-ANA at 2 3 4 5 6 8 9 10 11 12 15: 53.6 a.u.
2'F-ANA at 3 4 5 6 7 10 11 12: 62.5 a.u.
2'F-ANA at 1 4 6 7 8 9 10 11 13 15: 50.3 a.u.

Some of these lines once more (study 1):
CACCCTGA: -0.0029
CCCCAGCC: 0.0864
ACAGTAAC: -0.0982
GCTTTACA: -0.0895
TGAATAAA: 0.049
GTAACACA: -0.155
AACCGTAT: -0.178
